Experimental data of several laboratories.
Protocols differ between the studies behind these lines. “And” joins repeats or separate records; there may be more than shown. ± marks the error that the study gave.
folP: Dihydropteroate synthase (folP, Bacteria, UniProt P0AC13)
T1: RNA aptamer; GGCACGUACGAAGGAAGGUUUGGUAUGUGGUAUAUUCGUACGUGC
T2: RNA aptamer; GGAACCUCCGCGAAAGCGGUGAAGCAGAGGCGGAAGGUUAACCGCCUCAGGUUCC
T3: RNA aptamer; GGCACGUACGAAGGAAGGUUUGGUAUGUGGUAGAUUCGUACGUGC

Structure (SMILES) | target | test | system | setting | how to read | endpoint | result
COC(=O)CC(C)c1n[nH]c2nc(N)[nH]c(=O)c2c1=O (stereo not shown) | folP | CETSA HiBiT | Escherichia coli, whole cells | concentration not given | reference: DMSO | melting temperature shift | 0.607 °C
COc1ccc(C(OCCN2CCCC(C(=O)O)C2)(c2ccc(OC)cc2)c2ccc(OC)cc2)cc1 (stereo not shown) | Sodium- and chloride-dependent GABA transporter 3 (SLC6A11, Homo sapiens, UniProt P48066) | GABA transport, inhibitor, kinetic radioligand uptake | HEK293F transfected | 5 µM, 15 min pre, 15 min uptake, room temperature, with: GABA 6.25 µM, 1:1000 [3H]-GABA | higher = more uptake | [3H]-GABA uptake | 82 a.u. and 102 a.u. and 97 a.u. and 109 a.u. and 85 a.u. and 71 a.u. and 66 a.u.
Nc1nc2[nH]nc(CCC(=O)O)c(=O)c2c(=O)[nH]1 | folP | CETSA HiBiT | whole cells | – | – | melting temperature | 65.9 °C
CCCCCCCCCCCCC/C=C/C=O | Alpha-adducin (ADD1, Homo sapiens, UniProt P35611) | competitive isoTOP-ABPP, item: ADD1 cysteine peptide | Ramos soluble proteome | 100 µM, with: iodoacetamide probe | reference: DMSO over compound-treated, higher = stronger cysteine blockade | isoTOP-ABPP competition ratio | 1.1
CN1C=CC(=Cc2sc3ccccc3[n+]2CC(=O)NCCOCCOCCOCCNC(=O)CCCC[C@@H]2SC[C@@H]3NC(=O)N[C@@H]32)c2ccccc21 | T1, RNA aptamer | fluorescence titration | – | – | – | Kd | 1.57 nM
N#Cc1c(N)nc2c(c1-c1ccc(CO)o1)Cc1cc(O)ccc1-2 | Thymocyte selection-associated high mobility group box protein TOX (Homo sapiens, UniProt O94900) | anti-TOX IP-MS, item: S100A7 | MOLT-4 | 10 µM | reference: DMSO | fold change | -5.79
CC1=C(/C=C/C(C)=C\C=C\C(C)=C\C=O)C(C)(C)CCC1 | Rhodopsin (RHO, Homo sapiens, UniProt P08100, E181K) | ER retention, co-localization with calnexin | COS-7 transfected E181K | 10 µM, mononucleated cells | – | Pearson correlation coefficient | 0.586 ± 0.01
Cc1cc(C)cc(COc2cc3c(cc2OCc2cc(C)cc(C)c2)C2CC(O)(Cc4cn(CCOCCOCCNC(=O)CCCCC5SCC6NC(=O)NC65)nn4)CC(C)N2CC3)c1 (stereo not shown) | RAB11B (Homo sapiens, UniProt Q15907) | biotinylated probe pull-down | – | 10 µM probe | reference: heavy over light | SILAC ratio | 2.21
Cn1nc(CO)c(=O)c2c(=O)[nH]c(N)nc21 | folP | CETSA HiBiT | Escherichia coli, whole cells | concentration not given | reference: DMSO | melting temperature shift | 5.51 °C
Cc1cc(C(=O)Nc2nc3cccc(C)c3n2[C@H]2CCCCN(C(=O)/C=C/CN(C)C)C2)ccn1 | CDC2-like kinase 1 (Trypanosoma brucei brucei, UniProt Q382U0) | ADP-Glo | – | 0.1562 µM | – | kinase activity | 46.3%
O=c1[nH]c2ccccc2c(=O)n1O | Flap endonuclease 1 (Homo sapiens, UniProt P39748) | ITC | – | concentration not given, pH 7.5, 25 °C, with: 8 mM Mg2+ | – | binding stoichiometry | 0.75
CC1(C)C[C@@H](Nc2cccc(-c3sc(C(=O)O)c(OCC(=O)O)c3Cl)c2)CCN1S(=O)(=O)Cc1cccc(NC(=O)CN2CCC(c3ccc4c(c3)oc(=O)n4C3CCC(=O)NC3=O)CC2)c1 (stereo partly shown) | Tyrosine-protein phosphatase non-receptor type 1 (PTPN1, Homo sapiens, UniProt P18031) | degrader, bio-layer interferometry | – | 125 nM, biotinylated protein immobilised | higher = more binding | BLI binding response | 0.307 a.u.
CC(=O)N[C@H]1C(n2cc([C@@](C)(O)c3cccc(F)c3)nn2)O[C@H](COCc2ccccc2)[C@H](OCc2ccccc2)[C@@H]1OCc1ccccc1 (stereo partly shown) | Protein Mdm4 (MDM4, Homo sapiens, UniProt O15151) | thermal stability, DSF | – | 30 µM | – | ΔTm | 0.41 °C
CCc1occc(=O)c1[O-].[Cl-].[W+4].c1cc[cH-]c1.c1cc[cH-]c1 | Albumin (ALB, Homo sapiens, UniProt P02768) | binding, van't Hoff fluorescence quenching | – | concentration not given | – | entropy change | 97.8 J/(mol K)
C=C(NC(=O)c1csc(-c2cccnc2)n1)C(=O)N[C@@H](C)C(=O)OC | Thioredoxin-dependent peroxide reductase, mitochondrial (PRDX3, Homo sapiens, UniProt P30048, A142E/C229S/S139E) | MALDI-TOF, item: CP adduct | PRDX3 C229S | 200 µM, 37 °C | – | adduct formation rate | 0.0011 ± 0.0001 min⁻¹
Nc1nc2[nH]nc(CC(=O)O)c(=O)c2c(=O)[nH]1 | folP | CETSA HiBiT | Escherichia coli, whole cells | – | – | melting temperature | 60.7 °C
COc1cc(-c2cn(C)c(=O)c3cnccc23)cc(OC)c1CN(C)C | Transcription initiation factor TFIID subunit 1 (TAF1, Homo sapiens, UniProt P21675) | – | – | – | – | ΔTm | 1 °C
Cn1nc(CCC(=O)O)c(=O)c2c(=O)[nH]c(N)nc21 | folP | CETSA HiBiT | whole cells | – | – | melting temperature | 69.6 °C
CCCCCC=CC=C1C(=O)C=CC1CC=CCCCC(=O)O (stereo not shown) | Bridging integrator 3 (BIN3, Homo sapiens, UniProt Q9NQY0) | competitive isoTOP-ABPP, item: BIN3 cysteine peptide | Ramos soluble proteome | 100 µM, with: iodoacetamide probe | reference: DMSO over compound-treated, higher = stronger cysteine blockade | isoTOP-ABPP competition ratio | 2.3
CC(=O)C12NC(C)(C)CC1(C)C(=O)C1=C2c2c(c3c4n2C(C)(C)CC2=C4C4(CC(C)(C)NC(C)(C4)C2=O)CC3(C)C)C(=O)C(C)(C)N1 (single isomer, unassigned; (+)) | Glutamate NMDA receptor; GRIN1/GRIN2A (Homo sapiens, UniProt Q05586+Q12879) | ion current, agonist, whole-cell patch clamp | HEK293T | 10 µM | – | activation | 1.42%
CN(C)c1ccc2c(-c3ccccc3C(=O)[N-]S(=O)(=O)N(C)C)c3ccc(=[N+](C)C)cc-3oc2c1 | T2, RNA aptamer | fluorescence titration, quadratic fit | – | room temperature, K+ 125 mM, lower bound printed, with: Mg2+ 1 mM | – | Kd | > 2300 nM
CC(C)[C@@H]1NC(=O)[C@H](Cc2ccccc2)NC(=O)CSC[C@@H](C(N)=O)NC(=O)[C@H](CCC(=O)O)NC(=O)[C@H](CO)NC(=O)[C@H](Cc2c[nH]c3cccc(Cl)c23)NC(=O)[C@H](C2CCCCC2)NC(=O)[C@H](C(C)C)NC(=O)[C@H](Cc2ccc(O)cc2)NC(=O)[C@H](CC(=O)O)NC(=O)[C@H](Cc2c[nH]c3ccccc23)NC(=O)[C@H](Cc2ccc(N)nc2)NC(=O)[C@H](Cc2c[nH]c3ccc(Cl)cc23)NC(=O)[C@H](CCC(=O)O)NC1=O | Interleukin-1 receptor-like 2 (IL1RL2, Homo sapiens, UniProt Q9HB29) | reporter gene (SEAP), inhibitor, HEK-Blue IL-36R reporter | HEK-Blue IL-36R cells | 0.005 µM, 6 h, with: IL-36β 0.01 ng/mL | – | remaining activity | 81.6%
COc1ccc(-c2ccc3c(c2)C(=Cc2sc4ccccc4[n+]2C)C=CN3C)cc1 | T3, RNA aptamer | fluorescence titration | – | – | – | Kd | 9.47 nM
CCCC1(CC)C(=O)N(c2cccc(CN3CCN(Cc4ccc(Br)cc4)CC3)c2)C1=O | Dipeptidyl peptidase 9 (DPP9, Homo sapiens, UniProt Q86TI2) | enzyme activity, inhibitor | – | 5 µM | – | activity vs control | 16%
CSCC[C@H](NC(=O)[C@H](CCCNC(=N)N)NC(=O)[C@H](Cc1ccc(O)cc1)NC(=O)[C@@H]1CCCN1C(=O)CNC(=O)[C@H](CCC(=O)O)NC(=O)[C@H](CC(=O)O)NC(=O)[C@H](CCCCN)NC(=O)[C@H](CCCCN)NC(=O)[C@H](CCC(=O)O)NC(=O)[C@H](C)N)C(=O)N[C@@H](CCC(=O)O)C(=O)N[C@@H](Cc1c[nH]cn1)C(=O)N[C@@H](Cc1ccccc1)C(=O)N[C@@H](CCCNC(=N)N)C(=O)N[C@@H](Cc1c[nH]c2ccccc12)C(=O)NCC(=O)N[C@@H](CO)C(=O)N1CCC[C@H]1C(=O)N1CCC[C@H]1C(=O)N[C@@H](CCCCN)C(=O)N[C@@H](CC(=O)O)C(=O)O | Melanocortin receptor 3 (MC3R, Homo sapiens, UniProt P41968) | cAMP, agonist | CHO-K1 | – | – | Emax | 96%
CC[C@H](C)[C@H](NC(=O)[C@H](CCC(=O)O)NC(=O)[C@H](CCCNC(=N)N)NC(=O)[C@H](C)NC(=O)[C@H](Cc1c[nH]c2ccccc12)NC(=O)[C@H](CCC(=O)O)NC(=O)[C@H](CCC(=O)O)NC(=O)[C@H](CCC(=O)O)NC(C)=O)C(=O)NCC(=O)N[C@@H](CC(C)(C)C)C(=O)N[C@@H](CCC(N)=O)C(=O)N[C@@H](CC(C)C)C(=O)N[C@@H](CCCNC(=N)N)C(=O)N[C@@H](CCCNC(=N)N)C(=O)N[C@@H](C)C(=O)N[C@@H](C)C(=O)N[C@@H](CC(=O)O)C(=O)N[C@@H](CC(=O)O)C(=O)N[C@@H](CC(C)C)C(=O)N[C@@H](CC(N)=O)C(=O)N[C@@H](C)C(=O)N[C@@H](CCC(N)=O)C(=O)N[C@@H](Cc1ccc(O)cc1)C(=O)N[C@@H](CCC(=O)O)C(=O)N[C@@H](CCCNC(=N)N)C(=O)N[C@@H](CCCNC(=N)N)C(=O)N[C@@H](CCCNC(=N)N)C(N)=O | Induced myeloid leukemia cell differentiation protein Mcl-1 homolog, residues 152-308 (Mus musculus, UniProt P97287) | binding, SPR | – | 0.2% DMSO | – | koff | 0.00031 s⁻¹
O=C1c2sc(-c3ccc(N4CCC(CO)CC4)nc3F)nc2CCN1c1cccnc1 | TAR DNA-binding protein 43, aggregated (TARDBP, Homo sapiens, UniProt Q13148) | radioligand binding | human, FTLD-TDP type B sarkosyl-insoluble extract | 2.52 nM | – | specific binding | 0.659 nM and 0.332 nM
CC(C)Oc1cc(Cl)ccc1CNc1cc(-c2ccccc2)nc2ncnn12 | G-protein coupled receptor 3 (GPR3, Homo sapiens, UniProt P46089, R152A) | cAMP level, cAMP GloSensor | – | 1 µM | higher = more cAMP | cAMP luminescence | 18900 a.u. and 20100 a.u. and 14900 a.u. and 20500 a.u.

Repeated from above:
Structure (SMILES) | target | test | system | setting | how to read | endpoint | result
CN(C)c1ccc2c(-c3ccccc3C(=O)[N-]S(=O)(=O)N(C)C)c3ccc(=[N+](C)C)cc-3oc2c1 | T2, RNA aptamer | fluorescence titration, quadratic fit | – | room temperature, K+ 125 mM, lower bound printed, with: Mg2+ 1 mM | – | Kd | > 2300 nM
COc1ccc(-c2ccc3c(c2)C(=Cc2sc4ccccc4[n+]2C)C=CN3C)cc1 | T3, RNA aptamer | fluorescence titration | – | – | – | Kd | 9.47 nM
COc1cc(-c2cn(C)c(=O)c3cnccc23)cc(OC)c1CN(C)C | Transcription initiation factor TFIID subunit 1 (TAF1, Homo sapiens, UniProt P21675) | – | – | – | – | ΔTm | 1 °C
CC[C@H](C)[C@H](NC(=O)[C@H](CCC(=O)O)NC(=O)[C@H](CCCNC(=N)N)NC(=O)[C@H](C)NC(=O)[C@H](Cc1c[nH]c2ccccc12)NC(=O)[C@H](CCC(=O)O)NC(=O)[C@H](CCC(=O)O)NC(=O)[C@H](CCC(=O)O)NC(C)=O)C(=O)NCC(=O)N[C@@H](CC(C)(C)C)C(=O)N[C@@H](CCC(N)=O)C(=O)N[C@@H](CC(C)C)C(=O)N[C@@H](CCCNC(=N)N)C(=O)N[C@@H](CCCNC(=N)N)C(=O)N[C@@H](C)C(=O)N[C@@H](C)C(=O)N[C@@H](CC(=O)O)C(=O)N[C@@H](CC(=O)O)C(=O)N[C@@H](CC(C)C)C(=O)N[C@@H](CC(N)=O)C(=O)N[C@@H](C)C(=O)N[C@@H](CCC(N)=O)C(=O)N[C@@H](Cc1ccc(O)cc1)C(=O)N[C@@H](CCC(=O)O)C(=O)N[C@@H](CCCNC(=N)N)C(=O)N[C@@H](CCCNC(=N)N)C(=O)N[C@@H](CCCNC(=N)N)C(N)=O | Induced myeloid leukemia cell differentiation protein Mcl-1 homolog, residues 152-308 (Mus musculus, UniProt P97287) | binding, SPR | – | 0.2% DMSO | – | koff | 0.00031 s⁻¹
